Measured values gathered from unrelated publications.
Numbered parts are unrelated; each lists some results of a single study.

Series 1 — method: RNA Bind-n-Seq; form: RNA; matrix: in vitro; concentration: 200 nM; setting: whole 134-nt RNA, ends assumed; with: 150 mM LiCl; reference: input library; direction: higher = stronger binding; each molecule: 7-deaza-guanosine replaces G
Target: Ras GTPase-activating protein-binding protein 1, full length (G3BP1, Homo sapiens, UniProt Q13283)
Sequence of UniProt Q13283 (whole entry, looked up): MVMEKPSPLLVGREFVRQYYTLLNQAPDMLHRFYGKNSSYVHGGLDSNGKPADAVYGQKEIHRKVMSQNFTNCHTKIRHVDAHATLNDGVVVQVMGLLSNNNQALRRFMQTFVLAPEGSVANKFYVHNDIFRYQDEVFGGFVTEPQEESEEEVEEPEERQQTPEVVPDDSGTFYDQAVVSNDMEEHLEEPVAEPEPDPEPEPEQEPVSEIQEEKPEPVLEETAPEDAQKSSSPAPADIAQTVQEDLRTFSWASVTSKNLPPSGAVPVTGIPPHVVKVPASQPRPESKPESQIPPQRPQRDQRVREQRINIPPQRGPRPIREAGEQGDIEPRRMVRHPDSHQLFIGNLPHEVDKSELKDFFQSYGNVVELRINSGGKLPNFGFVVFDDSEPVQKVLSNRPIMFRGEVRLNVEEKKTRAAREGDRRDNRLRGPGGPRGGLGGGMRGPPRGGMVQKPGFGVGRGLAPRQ
Constant ends, left off below: GGGAGUUCUACAGUCCGACGAUC … UGGAAUUCUCGGGUGUCAAGG
Strand	log2 enrichment
UUCACAGCCAGCAGGCAUUGGAAUAUGGCACCAAACUCGUUGGAGGAACCACUCCAGGGAAAGGAGGCCAGACACAUCUGGGCUUACCUG	-0.173
UGGCCCUGGUGGCAUGCGGGGAGGAAGAGGUGGCCUCAUGGAUCGUGGUGGUCCCGGUGGAAUGUUCAGAGGUGGCCGUGGUGGAGAGAG	0.605
CACAGACAACACGCACCCACACAGACACAGAGGGACGGGGUUGGGAUGGGGACAGGGUGCACAGCAGGGCGGGGUAGGACCCCAGCCCCU	-1.39
GCAGGAAAAAAAAACAAAUGGAAAUGCUUCGGAUAGUGGCAGGGGUGGGGGUUGCUAAGGAAAGGGUGGGAUGGGAGUGGGUAAAGAGUU	0.118
UUAUCUGUGGACUUCACCCAAAAGGAGUGGCAGCUACUGGAUCCCUCUCAGAAGAAUUUAUACAAGGAUGUGAUGUUGGAGAACUAUAGC	-1.63
CCUCAAGUCCUGUGCUACACAUCGUAUGUACCGAAUCGGGAGGGAGGGAGGGAAAGUAUUAUGUUACGCCGUUCGGAUCUGCACUUCCAG	0.0515
UGGCCCUGGUGGCAUGCGGGGAGGAAGAGGUGGCCUCAUGGAUCGUGGUGGUCCCGGUGGAAUGUUCAGAGGUGGCCGUGGUGGACACAG	0.00917
GCAGGAAGUAAAAACAAAUGGAAAUGCUUCGGAUAGUAGCAGGGGUGGGGGUUGCUAAGGAAAGGGUGGGAUGGGAGUGGGUAAAGAGUU	-0.113

Series 2 — method: protein binding microarray; form: double-stranded DNA, one strand shown; matrix: in vitro; concentration: not given; reference: not given; direction: higher = stronger binding
Target: Histone acetyltransferase KAT6A, winged helix 2, GST fusion (KAT6A, Homo sapiens, UniProt Q92794, residues 85-181)
Setting: 8-mer, flanks averaged, mean of 2 arrays, mostly near background
Residues (chain): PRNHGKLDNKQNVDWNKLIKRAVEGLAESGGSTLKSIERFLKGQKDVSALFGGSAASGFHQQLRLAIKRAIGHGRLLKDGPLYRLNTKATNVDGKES
Strand	E-score
GATAAGAC	-0.182
ACTTTTTC	-0.0919
CCAATGCC	-0.18
CACAACGG	-0.0811
AGGACGCG	0.0486
AGATCCAT	-0.102
GGGCCGAA	0.0791
AATGCCAG	0.0258
CACTTGCG	0.0451
TTAGGAAA	0.058
CCACCAGA	-0.0604
GATACTCC	0.101
AAACGACC	0.103
GCCCAGTA	0.0695
CCAGAAGG	0.0537
ATTATTCC	0.0406
ATGCACTA	-0.093
ATATGACG	0.0247

Series 3 — method: RNA Bind-n-Seq; form: RNA; matrix: in vitro; concentration: not given; reference: input RNA pool; direction: higher = stronger binding
Target: RING finger protein unkempt homolog, zinc fingers 1-6, GST-SBP tag (UNK, Homo sapiens, UniProt Q9C0B0, residues 30-357)
Setting: RNA with constant flanks, human-mouse chimeric sites, ends assumed
Constant ends, left off below: GGGAGUUCUACAGUCCGACGAUC … CAACAGAGGAUUGAGCAUCA
Construct (chain): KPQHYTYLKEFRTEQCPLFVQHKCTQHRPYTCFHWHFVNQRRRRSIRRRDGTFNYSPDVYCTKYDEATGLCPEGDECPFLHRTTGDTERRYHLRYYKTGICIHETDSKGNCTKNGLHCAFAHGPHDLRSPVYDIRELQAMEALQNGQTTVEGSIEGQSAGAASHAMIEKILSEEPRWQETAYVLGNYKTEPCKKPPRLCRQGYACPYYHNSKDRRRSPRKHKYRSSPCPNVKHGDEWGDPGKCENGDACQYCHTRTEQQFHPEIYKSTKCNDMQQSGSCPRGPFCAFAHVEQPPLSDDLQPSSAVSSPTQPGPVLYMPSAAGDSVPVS
Strand	bound/input enrichment
UACUCAACUUUCUUGCCACAUUUUGAAUUCCAAGACAUUAUUCCUCCAGAUGACUUCCUAACGAGUGAUGAAGAGCAAGAUUCCGUUUUAUUUGGAAGUUUGAGAGGACAAGUUGUUGGA	0.14 ratio
GUAUACGGUUAUCGAGGAAAGGACUGUAGAGCGAAUGUUUACCUUCUUCCCACAGGGAAAAUAGUUUAUUUUAUCGCCUCAGUGGUAGUCCUGUUUAAUUAUGAGGAGAGGACUCAGCGA	8.09 ratio
CUGGCCUGGCCCUCCCCAGGGGCCUCCUUUCGUAUAGUCACUGCUUCUGCAUCAGAUAUUUUUAGCUGCAACUCCCUACUGGGUGGGGCACCCAUUUCAGGCAGAAGUUGGUGCCCCCCU	0.491 ratio
AAAGUGAUGACUAUGUUUGUCCAACGACAGGUAUUUUCGGAGAGCAAAGAUGAGAUUGCUUUAGUCCUCUAUGGCACAGAUGGCACUGACAAUCCCCUUGCUGGCAAGGACCAGUAUCAG	0.178 ratio
CAGCUGCAGACAGAAAAGGAUGAGAAGGAGCUGUAUAAGGUACAUUUGAAGAAUACAGAAAUAGAAAAUACGAAGCUUGUGUCAGAGAUACAGACUUUAAAAAAUUUAGAUGGAAACAAA	2.94 ratio
UGGCGCCUCCCAUUUUUGUUUUUAAAUUUAAGUGUAUUUUUAUAAGAUACAUGUAUUUACAAUUGAGCUUUUGUUACAUAAUGCUGAAAUGCUACUGGAGAUUAUGAAAAAUGUUUCAAU	0.673 ratio
UGUAGUUUCUUGAUUUAUCAUUUUUCUCUUUUCUUUCUUUCCUUUAGGAAAAGCCUAAAGAUUAGACUGUAAGAAAAACAGAAGCCAUGUUUCGAAGGAAGACCUGUCAGGUAUUUCGUC	0.108 ratio
GUGCCCUUCUCGCUGCUGCGGAGCCCGAGCUGGGAACACCCCUUCCGCUGGUACCCUGCACACAGCCGCCUCUUCGAUCAAGCUUUCGGGGUGCCCCGGUUGCCCGAGGAGUGGUCGCAG	0.0634 ratio

Series 4 — method: universal PBM; form: double-stranded DNA, one strand shown; matrix: in vitro; concentration: not given; direction: higher = stronger binding
Target: Sal-like protein 4, full length isoform B (SALL4, Homo sapiens, UniProt Q9UJQ4-2, residues 1-616)
Setting: 8-mer, flanks averaged, mean of replicates
Strand	E-score
GCAGAGAC	-0.239
GCTAGATA	0.12
AACGCCGT	-0.125
AACGAAGC	-0.19
TAATCGCA	0.156
AGTTGGAA	-0.0551
CTGCAGTC	-0.306
CAACTCCC	-0.107
CTAAGGGA	-0.105
ACTTCTTG	-0.00379
ATCAGCCC	-0.101
AGATTAGG	0.0457
CACCAGTA	0.1
CACCTCTA	-0.0394
ATATAAGG	0.232
AGGTGAAG	-0.0442
GACGATGA	0.0131
GGGCACTA	-0.0594
ATACGAGA	0.195
GGTAGGCA	-0.0411
GAGCCACC	-0.284
TCTATTAA	0.315
AGGGGGAC	-0.302
CATTCCTC	-0.0301
GTCAGAAC	-0.103

Repeated from above (series 4):
Strand	E-score
TAATCGCA	0.156
AGTTGGAA	-0.0551
CTGCAGTC	-0.306
CAACTCCC	-0.107
CTAAGGGA	-0.105
ACTTCTTG	-0.00379
